Measured values of several laboratories.
Every numbered part comes from another study and shows a few of its results, in no order.

Set 1
Target: RING finger protein unkempt homolog, zinc fingers 1-6, GST-SBP tag (UNK, Homo sapiens, UniProt Q9C0B0, residues 30-357)
Sequence of UniProt Q9C0B0 (30-357, looked up): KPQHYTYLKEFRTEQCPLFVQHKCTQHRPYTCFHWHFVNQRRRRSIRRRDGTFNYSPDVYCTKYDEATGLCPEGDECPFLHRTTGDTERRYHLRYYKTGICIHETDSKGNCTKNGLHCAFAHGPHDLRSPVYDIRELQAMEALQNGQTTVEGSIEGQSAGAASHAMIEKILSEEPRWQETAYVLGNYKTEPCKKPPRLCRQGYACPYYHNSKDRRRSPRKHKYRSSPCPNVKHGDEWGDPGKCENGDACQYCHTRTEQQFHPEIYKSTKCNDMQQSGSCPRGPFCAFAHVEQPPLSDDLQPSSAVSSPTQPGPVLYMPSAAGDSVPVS
Method: RNA Bind-n-Seq
Molecule type: RNA
Matrix: in vitro
Concentration: not given
Notes: RNA with constant flanks, ends assumed
Relative to: input RNA pool
Reading: higher = stronger binding
Measurement: bound/input enrichment
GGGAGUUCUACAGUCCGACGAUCUAACAAUAUAUGAUAUAUAAACCUUAAAUGAAAAAAAUGAUCUAUUGCAGAUAUUUGAUGCCGUUUUCUUUUUUAAAUUAAUCAGAAACCCCACUUCCAUUGUAUUGUCUGACACAUGCUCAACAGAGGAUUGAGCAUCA: 2.2 ratio
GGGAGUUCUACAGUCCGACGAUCUAUCACAAUGUAUACUCUCGAGAUCCUAAUUAUCUGAAUUUGUUCAUUAUCGUAAUGGAGAACCGAAAUCUCCACAGUCCUGAAUAUCUGGAAAUGGCUUUGCCAUUAUUUUGCAAAGCGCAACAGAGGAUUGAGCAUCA: 0.188 ratio
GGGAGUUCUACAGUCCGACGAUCGCCAUUUUCCCAGAUGGGACGCACAACGACACAUGGCAGUGCCAAGGCUACUUCACUGCACCCGAACAAUUUAUCAAGGAAGUGAUCAAGAGUCAUUCUCCCGAAGACAUGACAAAAACACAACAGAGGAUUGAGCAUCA: 0.209 ratio
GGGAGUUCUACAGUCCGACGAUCGUAAUGUGUCCAUUUAACUUAUUUUUAUAGCACUUAGGCAAUAUUGUUAGUCUUAGUGAGCCGUUCACAUCUUUACAAAAGCAUGCUCUCCCUAUCCAUUGGGCCCACAAUAACACUCUCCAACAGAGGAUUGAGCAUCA: 5.54 ratio
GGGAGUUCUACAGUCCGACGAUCUGUGUAGCCUUUUUUAAUAUCCUUAAUGAGUUAAAUGACUAUGCAGGACAGCGAGAAGUUGCCGCAGAAGAAAUGGCGCACAGAGUGUAUGGUGAAUUAAUGAGAUAUGCUCAUGAUCUGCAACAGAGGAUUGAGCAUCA: 0.973 ratio
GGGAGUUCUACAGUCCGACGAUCGACAUUCUUCUCCUUGUUGUCCGAUUGGCUGUGCUGGUGGCUGUCACCCUCACGGUCCCAGCCGUUAUUUUCCCUAUCCGGAGUUCCGUCACUCACUUACUGUGUCCCACAAAAGAGUUCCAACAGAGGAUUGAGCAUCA: 0.256 ratio
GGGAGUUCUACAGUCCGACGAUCGGGACAGGGGUAGUGUUCCUGGUUUUGGUGGGGUUUGCCUUUAGUUUAAUUUUCCUUUUCCCGCUUCCCUUUGCCGGCUGGUGCGUACGUUGUAGUCCCCCGAGGCCAUGUCAGGAGACGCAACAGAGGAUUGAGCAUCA: 6.23 ratio
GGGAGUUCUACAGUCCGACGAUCGAUAACUGUCGAGAAGUGAUUAUUACACCAAAUUCUGCAUGGGGUGGAGAAGGCAGCCCCGGAUGUGGCAUUGGAUAUGGUUAUUUGCAUCGAAUACCUACACGCCCAUUUGAGGAAGGACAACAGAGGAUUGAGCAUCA: 0.573 ratio
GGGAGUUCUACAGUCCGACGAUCCCCAUCAUUGAGUCUUCCUCAAAUAUCAAAUUUGGAUGUUUUCAAUGGUACUAUCCUGAAUCCGCUUUCCAGUUCAAAGAUGCAGGGCUAAGUAUCUUCAACAAUACAUGGAGUAACAUUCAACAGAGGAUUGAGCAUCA: 0.197 ratio
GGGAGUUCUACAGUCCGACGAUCAAAUCAUGUGUGUCAAAUAUUGAAAGUACUUUAUCUGCACUCCAAUAUGUAAGCAGCACCGCCGUUUCUUUAGAGAAUAGGUCUGCCAUUGUGAAGUAUAAUGCAAGCUCAGUCACUCCACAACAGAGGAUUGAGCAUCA: 0.572 ratio
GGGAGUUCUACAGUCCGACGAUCGAACAAUCCUUGGAAACUGCUAAGGCAGUAAAGGAGCGCUAUAGUUAUGUCUGCCCAGAUUCCGUAAAAGAAUUUAACAAGUAUGAUACAGAUGGGUCAAAAUGGAUUAAACAGUAUACUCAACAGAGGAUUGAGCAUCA: 0.361 ratio

Set 2
Target: Ras GTPase-activating protein-binding protein 1, full length (G3BP1, Homo sapiens, UniProt Q13283)
Sequence of UniProt Q13283 (whole entry, looked up): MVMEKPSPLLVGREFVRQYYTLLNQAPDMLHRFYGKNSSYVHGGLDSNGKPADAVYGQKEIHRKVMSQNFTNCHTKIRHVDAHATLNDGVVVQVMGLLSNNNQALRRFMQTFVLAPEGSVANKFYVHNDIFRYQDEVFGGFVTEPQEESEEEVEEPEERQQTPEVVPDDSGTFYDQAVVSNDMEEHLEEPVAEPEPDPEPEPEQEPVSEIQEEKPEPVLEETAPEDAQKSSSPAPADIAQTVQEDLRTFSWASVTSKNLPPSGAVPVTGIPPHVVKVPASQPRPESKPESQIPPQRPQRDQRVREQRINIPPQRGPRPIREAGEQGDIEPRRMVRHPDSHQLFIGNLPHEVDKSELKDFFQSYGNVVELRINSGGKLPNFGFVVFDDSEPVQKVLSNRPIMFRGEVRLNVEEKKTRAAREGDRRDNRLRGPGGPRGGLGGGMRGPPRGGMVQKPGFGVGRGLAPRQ
Method: RNA Bind-n-Seq
Molecule type: RNA
Matrix: in vitro
Concentration: 200 nM
Notes: whole 134-nt RNA, ends assumed
With: 150 mM LiCl
Relative to: input library
Reading: higher = stronger binding
Measurement: log2 enrichment
Library: 7-deaza-guanosine replaces G
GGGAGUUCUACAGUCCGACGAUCUAACUAUAGAGGAGGAUCUGAUGGAUAUGGCAGUGGACGUGGAUUUGGGGAUGGCUAUAAUGGGUAUGGAGGAGGACCUGGAGGUGGCAAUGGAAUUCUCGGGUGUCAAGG: -0.348
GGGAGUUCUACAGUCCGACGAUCGUCCUGUGCUACACAUCGUAUGUACCGAAUCGGUUUUUGGGGUUUUUGGGGUUUUUGGGAAAGUAUUAUGUUACGCCGUUCGGAUCUGCAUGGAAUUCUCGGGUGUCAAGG: -0.221
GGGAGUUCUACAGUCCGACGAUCUUCCUCAAGUCCUGUGCUACACAUCGUAUGUACCGAAUCGGUGGUGGGUGGAAAGUAUUAUGUUACGCCGUUCGGAUCUGCACUUCCAGCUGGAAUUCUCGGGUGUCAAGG: 0.933
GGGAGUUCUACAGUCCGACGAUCUUGUCCCGGAUGGGCAGCCUGCGGGCUCCCGUGGACGAGGACCGCCUGUCCCCGCUGGUGGCGGCCGACUCGCUCCUGGAGCAUGUGCGGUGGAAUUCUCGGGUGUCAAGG: -0.411
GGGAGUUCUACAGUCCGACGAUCUCCUGUGCUACACAUCGUAUGUACCGAAUCAAACCCCCCCAAACCCAAAUUUUUUUAAAAAAGUAUUAUGUUACGCCGUUCGGAUCUGCAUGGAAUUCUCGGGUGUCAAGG: 1.23
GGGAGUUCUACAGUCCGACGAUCAGUCCUGUGCUACACAUCGUAUGUACCGAAUCGGCCCCCGGCCCCCGGGCCCCCGGGGAAAGUAUUAUGUUACGCCGUUCGGAUCUGCACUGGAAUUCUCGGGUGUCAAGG: 0.231
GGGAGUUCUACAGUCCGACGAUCCUGCGCGCGGAUUUCCCUCUCUGAGGAAGUUUAUCCUUGUGCCUUCUGGAGGAUUUCUCUCUAGCUCGACUCACUCUGGACUGACUCGCUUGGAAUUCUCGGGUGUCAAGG: -0.99
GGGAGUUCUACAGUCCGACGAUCACCAUGCAGGUGGGCAUCUUUGGGAAGUGGGGCAAGGGGGGGAUAGGGAGGGGGGUAACACUUUGGGAACAGGUGGUCCCAGGAAAUUUCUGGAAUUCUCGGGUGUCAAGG: 0.272
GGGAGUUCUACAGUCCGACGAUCUCCUGUGCUACACAUCGUAUGUACCGAAUCGGGGCCCCCCGGGCCCCCCGGCCCCCCGGGAAAGUAUUAUGUUACGCCGUUCGGAUCUGCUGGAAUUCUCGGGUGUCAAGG: 0.398
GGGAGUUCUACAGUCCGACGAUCGUAGAAAUUCAUGUAUAAAUGGAACCAUAUAGUACAUACAUAUCAUACUCUUAGGUCUGGCAAAUAUUUGAGGUUCAUCCAUAUUUUAUAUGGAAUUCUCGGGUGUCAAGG: -1.9
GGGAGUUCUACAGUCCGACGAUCUAGGUAAGAAAGUACUCAUUGUCUAUGCACACCAGGAACCCAAGUCUUUCAACGGAUCCUUGAAGAAUGUGGCUGUAGAUGAACUGAGCAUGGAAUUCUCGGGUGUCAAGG: -0.705

Set 3
Target: RNA binding protein fox-1 homolog 2, RRM domain, GST-SBP tag (RBFOX2, Homo sapiens, UniProt O43251-10, residues 100-194)
Method: RNA Bind-n-Seq
Molecule type: RNA
Matrix: in vitro
Concentration: 365 nM
Notes: natural RNA segment, single round, ends assumed
Relative to: no-protein control
Reading: higher = stronger binding
Measurement: RBNS enrichment (R)
Residues (chain): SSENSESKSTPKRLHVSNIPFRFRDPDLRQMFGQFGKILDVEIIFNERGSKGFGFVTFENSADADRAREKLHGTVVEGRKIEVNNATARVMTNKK
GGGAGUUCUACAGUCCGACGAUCUUUAUCUUUCUAAAUCAUUUUCUGAAGCUGACUUGCUCUAGGGUGCUUCAUCACCACUUCCAUCUUGCAUCACCUUAUAACUGUUCUGUCUUGUUCUCUCCCAGCAAUUUUGGAAUUCUCGGGUGCCAA: 0.492
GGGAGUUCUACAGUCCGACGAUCUCAGGAAUGGUUAAUUCUUCAACGUUGGUAUGAUAAUGAUAACUUGUUUUGACUUGAAUAAAGUACUACAUCAGUGUGGAAAAAAAUUCUGAUACAUUAGCAGCUAUGUAUGGAAUUCUCGGGUGCCAA: 0.581
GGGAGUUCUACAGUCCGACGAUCUGGGCUGCCAGAGAGGUUUGUAGCCCGGCCCUGACUGCAUCCUCCCCAUCCCUGGGGCAACAUUCCCUGGAGCUGUGCCAACAGGAGGACUGAAGCAGCCUGGUUUUAGAUGGAAUUCUCGGGUGCCAA: 0.73
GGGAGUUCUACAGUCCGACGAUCCUAGUUUGUGAAGGGAUCUUCCUUUGGACUUUCUCUAAGUUGGGAGAAGAACAUUCUUUUCAAUGGAGCUCAUCUUCUAUCUCUAGGGUCUGUUCAGCCUUUCAUCUAUCUGGAAUUCUCGGGUGCCAA: 0.699
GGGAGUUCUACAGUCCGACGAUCCAUUCACAUCAUUUCAUUUUGGUCUGGAUGAUGGUCUGAGCCAGGGCACAUAGAACAUUGCUAUCCAUGCAGCCUUUGGGCCCCAGGGAACGGUCACCCUGUAAAGUGCUUGGAAUUCUCGGGUGCCAA: 0.273
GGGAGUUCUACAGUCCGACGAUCUUUAUUUUAAGAGUUAUUUCAUUUUCAUCCUAAGAGUGAUGGGAGAGAAAUGUCCAAAAGAGAUCUGCUGAUCUGCUGAGAGUUUCAAACAAACAAAAAAAUAAUCUCUAUGGAAUUCUCGGGUGCCAA: 0.468
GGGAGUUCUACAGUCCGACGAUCUGGGCAGUGCUGGCCUGUCUGACGUGCUGCCCUUGGCCUCCUUGCUCUCCACGUGUGGAAGCGCAUCUGCUUUCCUUGCUGUCUGUGCAAAUGCUGAACAAGGAGACAGAUGGAAUUCUCGGGUGCCAA: 3.36
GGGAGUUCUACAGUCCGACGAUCCAGAUCUGGAAGGGCCUCCCUCUCUGCCAGUGUUUGGGUGGGUGUCAUGGGUGUCCCCACCCACUCCUCAGUGUUUGUGGAGUCGAGGAGCCAACCCCAGCCUCCUGCCAUGGAAUUCUCGGGUGCCAA: 0.425
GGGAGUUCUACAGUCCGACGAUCUGCAUCUCCUUCCAGGUCAGCUCAUUCACAAGAGUUGCUCCCAAGCCUGGAUGAGUUGCACCUUGCAUCUUGAGCAUGCAUUUCUCACAAUAAUUAUUAAGCUGUGUGAUUGGAAUUCUCGGGUGCCAA: 0.845
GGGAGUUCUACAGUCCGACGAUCAUAGACUCCACAGAGAAUGGUGCUUUGUCCAAGGAAACCUGAGUUUCUGAUUGCCCAGGAGCAGUCAGUAGUGAGGAUACUGAGAAAACUUCCUUCCCAGAGAAAAUGGAUGGAAUUCUCGGGUGCCAA: 0.333
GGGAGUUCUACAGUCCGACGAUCUUCAAGGCAUCUCUUCCCCAUUCACCUAAAACCUCUGGCCUGAACAGAAAAGAGCCGGAGCUCUAAUGCAGGCUGUGUGGCCGCCCUUGUCUUAGGCUCAUUUGUUCCUUUGGAAUUCUCGGGUGCCAA: 0.427
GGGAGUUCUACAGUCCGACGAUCUCCUUGAGCCCAGGGACCAUGGAAGUCAGCUAGAAGAGCCCUGAGCAAGGAGCAAGGACUUGGGCUUCUCCACGCUUUGCUCCUGGCUUGUUUGACCUUGACUCAUUCCCUGGAAUUCUCGGGUGCCAA: 0.313

Set 4
Target: TAR DNA-binding protein 43, full length, His tag (TARDBP, Homo sapiens, UniProt Q13148, residues 1-414)
Method: RNA Bind-n-Seq
Molecule type: RNA
Matrix: in vitro
Concentration: 20 nM
Notes: 6-mer, flanks averaged, single round
With: 150 mM KCl
Relative to: input library
Reading: higher = stronger binding
Measurement: 6-mer enrichment (R)
GGAGUU: 1.3
GGGUUC: 1.67
CUGUGG: 1.44
GAAACU: 0.657
GGCCGG: 3.6
CGUUCC: 0.601
UGGAGU: 1.35
UCCCAC: 0.602
AAGUGG: 1.64
UACCAU: 0.585
CCAACA: 0.648
AAAUAC: 0.613
AACACU: 0.605
GCCUAA: 0.699
CGCCUA: 0.645
AUCCAG: 0.68
UAGCGU: 0.811
GUAGGG: 3.89
GUGAAU: 1.07
CCUAAC: 0.602
CUAGGG: 2.01
AGUGAG: 1.69
ACCUCG: 0.629

A few entries again (set 4):
AUCCAG: 0.68
UAGCGU: 0.811
GUAGGG: 3.89
GUGAAU: 1.07
CCUAAC: 0.602
CUAGGG: 2.01
AGUGAG: 1.69
